Assay results pooled from the literature.
Every numbered part comes from another study and shows a few of its results, in no order.

Sample 1 — technique: protein binding microarray; form: double-stranded DNA, one strand shown; matrix: in vitro; concentration: not given; reference: not given; reading: higher = stronger binding; measurement: E-score
Target: Histone acetyltransferase KAT6A, winged helix 2, GST fusion (KAT6A, Homo sapiens, UniProt Q92794, residues 85-181)
Setting: 8-mer, flanks averaged, mean of 2 arrays, mostly near background
Construct (chain): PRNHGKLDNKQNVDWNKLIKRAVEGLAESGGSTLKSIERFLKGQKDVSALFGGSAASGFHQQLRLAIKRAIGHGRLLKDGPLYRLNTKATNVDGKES
ACCGAGAA: -0.131
TGTTAAAA: -0.0214
CCAACCGA: 0.167
CTGAGGTA: 0.0715
ACGTTACG: -0.126
ATATTCAT: -0.0277
GCGATTAC: -0.00579
CCGGATCG: 0.116
ACCTTATC: -0.0386
GCCCTCAC: 0.13
ATTTGAGA: -0.189
GGGCTACA: 0.0232
CCGTTTCG: 0.118
AAACCATC: 0.0426
GCGCAGAC: 0.126
ATTATCCC: -0.0292
CGAAGGTA: 0.0079
AGGCAGAC: 0.00547
ATGCGACC: 0.242
CCCGCTGC: 0.0781
CGCGGGTA: 0.0289
GGCGTTCA: 0.143
AGCTGTGG: -0.0852
CCTGTCAA: -0.00627
TCACATCA: -0.0648

Sample 2 — technique: EMSA with sequencing; form: double-stranded DNA, one strand shown; matrix: in vitro; concentration: 10 and 20 nM; reference: negative control set to 0; reading: higher = stronger binding; measurement: normalised bound fraction
Target: Hepatocyte nuclear factor 3-alpha (Foxa1, Mus musculus, UniProt P35582, residues 1-468, full length assumed)
UniProt P35582, sequence (whole entry, looked up): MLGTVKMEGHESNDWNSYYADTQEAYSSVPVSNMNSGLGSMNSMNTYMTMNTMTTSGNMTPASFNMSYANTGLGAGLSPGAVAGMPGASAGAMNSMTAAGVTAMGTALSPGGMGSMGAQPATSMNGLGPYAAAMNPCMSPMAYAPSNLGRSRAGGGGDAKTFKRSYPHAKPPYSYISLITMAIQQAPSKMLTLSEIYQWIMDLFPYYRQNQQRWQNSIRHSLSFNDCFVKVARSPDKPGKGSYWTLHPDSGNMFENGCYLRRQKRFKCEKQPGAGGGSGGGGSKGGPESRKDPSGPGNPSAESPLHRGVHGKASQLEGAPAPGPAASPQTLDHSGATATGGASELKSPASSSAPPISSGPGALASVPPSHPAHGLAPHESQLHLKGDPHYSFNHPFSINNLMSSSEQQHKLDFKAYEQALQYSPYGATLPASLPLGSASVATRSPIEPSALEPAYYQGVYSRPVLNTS
Setting: whole designed probe, mean of two concentrations, ends assumed
Shared flanks, not repeated: GTGAGCGGTGCCCATTGATGGGGAAC … TTTCACTGGGATCGTGGGGAC
TGGCTGGCATCAAGGACTTTGGCTCTGGGGGTGTTCCCAGTCAACAGTTAACTAAAGACCAGGCCACTGTGCCTAGACTGTTTGTGCATTTGTGCAATCTATATGGGTTCATGCTGAACACCTGCGTTCCTTCTGAGAGTCTGAAAAGTTTAGAACATGCCAGGCAGAGGGTGTGTACCTGACCAACCCCCAA: 0.00182 ratio
AGGCCTTACCAAATGGAAGTTGCCCAGCCAGCCTTGGAAGGGAAGAATATCATCATCTGCCTCCCTACAGGGAGTGGAAAAACCAGAGTGGCTGTTTACATTGCCAAGGATCACTTAGACAAGAAGAAAAAAGCATCTGAGCCTGGAAAAGTTATAGTTCTTGTCAATAAGGTATTCAAAGAACACATAACAC: 0.252 ratio
TCTCCCCTGCAGGAGTTTGGACTAATCAGGTCACTACACCCTGACACAGCAGTCTCCAGTCTCTACCACTCATTGTTTGCAACAAGTCGAATTGTCAACAGACCACAGAGAAGTTAGCAACAGGGAAGGGAAAACACTTTAATCTCAAGGTCATCCCCAGGGTTCAGCAGGACATATATCCTATATCGAATCA: 0.157 ratio
TCTAAAATTTGGGGGGAAATTCTTGTTTTACACTGAAGCATAGAAATGACTCACATGGTTATACATTTTTCAAGAGCAATGCCCATGAATGAGTAATCTAGGAAGCATCTTCCTTGACAGCAACATCAGGGAAAGTCAGTCTTACTGATTAGTCTAGTGCAAGAGGTCACTGTCAAATTATATGCACACTCAT: -0.0696 ratio
TTTGAAATAGTTCATAATTTTAAAAGCAGCAACACTAACATTGTTCAGATTATTATAAAAGCATATATAAAGTTAGAGGATAGATGTTATATGTAAACATGAAGAAAGACTTAATATTAAATATCTCAGAGTATACACTTTATGAATAGAAATGGTGTATCCTTTTTTCCTAAGGAACGGAAGAAATTCACAT: 0.374 ratio

Sample 3 — technique: protein-binding microarray; form: double-stranded DNA, one strand shown; matrix: in vitro; concentration: 2540 nM top; setting: 60-bp whole probe; added: salmon DNA 0.4 mg/ml; reference: random background probes; reading: higher = stronger binding; measurement: fitted relative affinity; shared flanks, not repeated: GCCTAGCAC … GTCTTGATTCGCTTGACGCTGCTG
Target: Interferon regulatory factor 3, full length, phosphomimetic (IRF3, Homo sapiens, UniProt Q14653, residues 1-427, S386D/S396D/S398D/S402D/T404D/S405D)
Target sequence (chain): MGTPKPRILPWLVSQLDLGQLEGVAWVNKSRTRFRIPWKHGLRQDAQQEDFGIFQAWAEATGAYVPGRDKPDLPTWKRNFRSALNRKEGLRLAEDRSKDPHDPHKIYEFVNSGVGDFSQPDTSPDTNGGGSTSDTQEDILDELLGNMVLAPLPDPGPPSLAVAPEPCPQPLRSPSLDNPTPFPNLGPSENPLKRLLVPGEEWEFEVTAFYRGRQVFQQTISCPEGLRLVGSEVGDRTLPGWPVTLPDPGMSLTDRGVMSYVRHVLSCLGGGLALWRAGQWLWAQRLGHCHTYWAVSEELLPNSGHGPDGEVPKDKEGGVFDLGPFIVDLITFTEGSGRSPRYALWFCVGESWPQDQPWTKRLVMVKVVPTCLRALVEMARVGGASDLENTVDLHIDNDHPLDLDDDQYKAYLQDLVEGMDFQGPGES
GACGATTTCAGACTGGAGATGTGCTAG: 0.986 z-score
GCCGAACTGAGACTGGAGACGTGCTAG: 0.839 z-score
TTAGGTTTCCTTTACCTTTAGTGCTAG: 6.98 z-score
TCACTTTCAGTTCTCCCACTGTGCTAG: 6.35 z-score
GACGGCCTCGGTTTCGGGACGTGCTAG: 1.8 z-score
GACGAACTCAGTTTCGAGACGTGCTAG: 2.35 z-score
GACGCTATCGGGACTGGGGACGTGCTA: -0.104 z-score
ATTTGTTTCCATTTTCTGAAGTGCTAG: 9.37 z-score
TTAGATATCTTTTTCCTAATGTGCTAG: 2.17 z-score
TTAGATTTCGGGACTCGATTAGTGCTA: 1.21 z-score
GACGATCTCAGGCTGGAGACGTGCTAG: -0.0247 z-score
TCAAGTTTATTTATTTTACTGTGCTAG: 0.0753 z-score
GACGGTAGCGACTATCGGGACGTGCTA: -0.494 z-score
TTAGGTATCGACTTTCGGTGAGTGCTA: 1.34 z-score
CTCTGTCCCCCTTTTATATTGTGCTAG: 1.85 z-score
TCATTTTTCATTGTTTTACTGTGCTAG: 1.87 z-score
GACGGTCTCGGTTGCGGGACGTGCTAG: 0.926 z-score
GACGGTTTCGGGACTGGGGGCGTGCTA: 4.5 z-score
TCAGTCTTGGTTCTCAGACTGTGCTAG: 1.1 z-score

Sample 4 — technique: RNA Bind-n-Seq; form: RNA; matrix: in vitro; concentration: 365 nM; reference: no-protein control; reading: higher = stronger binding; measurement: RBNS enrichment (R)
Target: RNA binding protein fox-1 homolog 2, RRM domain, GST-SBP tag (RBFOX2, Homo sapiens, UniProt O43251-10, residues 100-194)
Setting: natural RNA segment, single round, ends assumed
Shared flanks, not repeated: GGGAGUUCUACAGUCCGACGAUC … UGGAAUUCUCGGGUGCCAA
Construct (chain): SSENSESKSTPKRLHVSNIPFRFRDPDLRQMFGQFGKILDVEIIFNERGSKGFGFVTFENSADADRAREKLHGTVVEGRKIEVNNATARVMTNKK
UCUGAGGCCCUAGAGGAGUUUGUAUCAAUUUGUGAGUAUUAAUGUCAGUACUACCAGCACUUUGCCAAAACUGUCAGAGGGACCCGUUUCUAGAGUGAGUCCCAGUUACA: 0.312
UGACUGGGAAGGACAUAAAAGGUUUAAUGUCAGGGUCAAACUACAUUGAGCCCCUGAGGACAGGGGCAUCUCUGGGCUGAGCCUACUGUCUCCUUCCCACUGUCCUUUCU: 0.235
UUGAUUUCAGAAAUCAGUACCUGGCGAGAUUUUUGUCUCAAAACGACUAUUUGAAUUUCAAGAACUGUGCUGCGAAGACACUCUGAGAACAUUUGCAAGUCAGGGGCAUU: 0.452
AUUUCCUAUAAUGUUAUAUCAUAGGAAGCCCUCACAGAGACACUAACACAGCUAAAGAUCUUCUGAUAUUAUCAGCAAGGGAUGCAAGGACUUUAUUGGAAUCUGGAGAG: 0.256
CGUGAACACAAAGCCUCGGAUCAGCCUUGAGAGAGGCCACACUACACACACCAGAUGGCAUCCUUGGGACCUGAAUCUAUCACCCAGGAAUCUCAAACUCCCUUUGGCCC: 0.173
GACUUGUCCUUUGAGAGCCUUCUUACAGAGAAUUGGUUAAAAAAACCAAACAUUCAAUUUGGAAUAAGAAUGAUUUUUUAAAGUUCUGUCUGAAACAUUAUCAAACUUGU: 0.508
UACCCCACGCGUGUCUGUCCCCCUCGUUCUGUAGCGUUUGUACAUAAUAAAACAAUGGAGUGGAGACGCUCAGGCUCGCGUGUAAUCCGGGAAGGGGGAGCUCAAGCGGA: 0.351
UGCCCGUAGCCCCUUCCGACUCAGUGGGGCGAGCGCUCAACACGGAUCGCCCCCCCCUUCCCAGUUCUCCAUAUCAGGGUAGAAGAUCUAGGCACUACAUAUGUAAUUGG: 0.434

Repeated from above (sample 1):
CCTGTCAA: -0.00627
ATATTCAT: -0.0277
AGGCAGAC: 0.00547
CGCGGGTA: 0.0289
ACCGAGAA: -0.131
